Assay results collected from several papers.
Each numbered part is a random draw from the data of one study; scales do not carry over between parts.

Set 1
Target: Histone acetyltransferase KAT6A, both winged helices, GST fusion (KAT6A, Homo sapiens, UniProt Q92794, residues 1-181)
Technique: protein binding microarray
Molecule type: double-stranded DNA, one strand shown
Sample: in vitro
Tested at: not given
Setting: 8-mer, flanks averaged, mean of 2 arrays, mostly near background
Reference: not given
Reading: higher = stronger binding
Construct (chain): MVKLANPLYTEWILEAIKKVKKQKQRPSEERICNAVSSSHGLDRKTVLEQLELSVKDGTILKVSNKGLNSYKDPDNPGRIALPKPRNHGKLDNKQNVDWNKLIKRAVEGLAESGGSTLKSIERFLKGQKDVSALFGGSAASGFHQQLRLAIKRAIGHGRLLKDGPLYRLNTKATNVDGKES
| Oligonucleotide | E-score |
| --- | --- |
| CAGTTTAA | -0.092 |
| ATCCCACA | -0.233 |
| AGGCAACG | -0.0974 |
| CTAAGTAC | -0.0426 |
| ACAACCTC | 0.0173 |
| AGCAAGCC | -0.146 |

Set 2
Target: RING finger protein unkempt homolog, zinc fingers 1-6, SBP tag (UNK, Homo sapiens, UniProt Q9C0B0, residues 30-357)
Chain of UniProt Q9C0B0 (30-357, looked up): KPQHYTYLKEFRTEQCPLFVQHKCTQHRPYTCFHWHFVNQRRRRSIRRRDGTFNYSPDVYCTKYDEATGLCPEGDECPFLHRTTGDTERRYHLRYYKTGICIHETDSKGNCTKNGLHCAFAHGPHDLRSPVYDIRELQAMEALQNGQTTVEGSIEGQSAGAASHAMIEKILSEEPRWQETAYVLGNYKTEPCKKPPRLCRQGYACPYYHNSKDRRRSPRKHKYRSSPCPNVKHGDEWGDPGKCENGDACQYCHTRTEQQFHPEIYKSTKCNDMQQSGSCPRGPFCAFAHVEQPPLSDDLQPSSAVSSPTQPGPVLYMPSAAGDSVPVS
Technique: RNA Bind-n-Seq
Molecule type: RNA
Sample: in vitro
Tested at: 100 nM
Setting: RNA with constant flanks, vertebrate orthologous sites, ends assumed
Reference: input RNA pool
Reading: higher = stronger binding
All sequences stand within: GGGAGUUCUACAGUCCGACGAUC … CAACAGAGGAUUGAGCAUCA
| Oligonucleotide | bound/input enrichment [ratio] |
| --- | --- |
| AGGAAAUGCUGGCUGCAAAUCCUCAGGAUCGUCCAGACGCUUUUGAACUAGAACUCAGAUUAGUACAAAUUGCGUUUAAAGAUAGCAGCUGGGAAACGUGACACACAUAUUAUCUGCAGA | 0.723 |
| AGGGACGUUUUGAUGUAAAAAUUGAAGUUAAGAGCUGAUCACAAGCACAAAUCUUUCCCACUAGCCAUUUAAUAAGUUAAAAAAGAUACAAAAACAAACCUACUAGUCUUGAACAAACUG | 1.53 |
| GUUGGUGCAGGGCGCUCUCUGUACCAGUGCCCAUCAUCCCUUCUUCAUACCAACUGUCCCUAGUUAUAGGAAUUUAAUAUUUUUAAAAGUUUUACAUUGCUGUAUAUUCAAAGAUUUGUU | 0.877 |
| ACAGGGAGAAGAGAUCACAAACUCAAGAAAAACUAUUAAAGAGUUCUAAUAGUUCAAAGCUAAGAAAGAGUAGGAUAAUUUUACAAAUGAGUGGUGGAAAAGAAAAGAACAGAAAAAGGC | 0.865 |
| CUGAAGCUUUGUGUUUGGCUGCACCUGCAUAAGCUGCUACAAAUAGAAUAAAGAAUUUCAUAGCCUGUGUCUAUCAUUUAGAUGCAUGGAAAAAUGGGCUUUGCACACAAUGGGUUUGGA | 2.56 |
| AAAGCCAUCUUUUCCACAUUUUCUGUAAAUAAUGGAUAAUCAUUUAAAAAAUUUUAUUUUUAGUGCUGUUUUAACAAUGUAGAUAGAUCAUAAAUGUACUUGCUGAAUUCAAUCAUUUUU | 0.603 |

Set 3
Target: Interferon regulatory factor 5, full length, phosphomimetic (IRF5, Homo sapiens, UniProt Q13568-2, residues 1-514, K96S/S451D/S453D/S456D/S462D)
Technique: protein-binding microarray
Molecule type: double-stranded DNA, one strand shown
Sample: in vitro
Tested at: 250 nM
Setting: 60-bp whole probe
Added: salmon DNA 0.4 mg/ml
Reference: random background probes
Reading: higher = stronger binding
All sequences stand within: GCCTAGCAC … GTCTTGATTCGCTTGACGCTGCTG
| Oligonucleotide | log fluorescence [z-score] |
| --- | --- |
| TTAAGTTTCGGGACTGGGTTAGTGCTA | 7.77 |
| TTAGGTTTCCTACTGCTTTGGTGCTAG | 0.236 |
| TCATTCCTCTTTTTTGTACTGTGCTAG | 1.12 |
| AACGATCTCAGACTGGAGACGTGCTAG | -0.354 |
| GACGGACGGGGGTATCGGGACGTGCTA | 1.24 |
| GACGGTCTCGGACTGGAGACGTGCTAG | -0.183 |

Other studies, line by line
| Molecule | target | test | test system | conditions | how to read | endpoint | value |
| --- | --- | --- | --- | --- | --- | --- | --- |
| PhoQ, residues 284 288 289 292 302 303 SLANIV | PhoP, residues 12 14 15 18 19 STWGI (Escherichia coli, UniProt P23836) | Sort-seq, refers to: YFP reporter | E. coli | PhoQ-PhoP variant library, added: 10 µM Mg2+ | reference: high Mg2+ state, higher = stronger signaling | fold induction | 7.27 |

Excerpt of the above (set 2):
| Oligonucleotide | bound/input enrichment [ratio] |
| --- | --- |
| AGGAAAUGCUGGCUGCAAAUCCUCAGGAUCGUCCAGACGCUUUUGAACUAGAACUCAGAUUAGUACAAAUUGCGUUUAAAGAUAGCAGCUGGGAAACGUGACACACAUAUUAUCUGCAGA | 0.723 |
| AGGGACGUUUUGAUGUAAAAAUUGAAGUUAAGAGCUGAUCACAAGCACAAAUCUUUCCCACUAGCCAUUUAAUAAGUUAAAAAAGAUACAAAAACAAACCUACUAGUCUUGAACAAACUG | 1.53 |
